Measured values pooled from the literature.
Every numbered part comes from another study and shows a few of its results, in no order.

Study 1
Target: RNA binding protein fox-1 homolog 2, RRM domain, GST-SBP tag (RBFOX2, Homo sapiens, UniProt O43251-10, residues 100-194)
Technique: RNA Bind-n-Seq
Molecule type: RNA
Medium: in vitro
Concentration: 365 nM
Notes: natural RNA segment, single round, ends assumed
Reference: no-protein control
Direction: higher = stronger binding
Residues (chain): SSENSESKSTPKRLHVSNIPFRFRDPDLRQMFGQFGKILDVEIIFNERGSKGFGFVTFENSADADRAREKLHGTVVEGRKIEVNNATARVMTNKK
| Sequence | RBNS enrichment (R) |
| --- | --- |
| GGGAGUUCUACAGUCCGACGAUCGGUAGGACUGGCUUCUGGCAGGGACAGGGCCUAUCCUAAGUACCUUCACCCAGUAUCACAAAGAUGACUUUGUGGGAGGUACUUAGAAUGGGCUAAGGUGGACAGGCUGUUGGAAUUCUCGGGUGCCAA | 0.339 |
| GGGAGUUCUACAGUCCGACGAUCUUCAAUGGUGCUUAUUAGAAGAAGUUUUUUCAUCUUGUCAUUUUAAGAAAAUAAAACUGGAAAUUGAAUAUGGGUGGCAUGAUUGUACCCUUUUAGUUCUCUUAUUUUUCUGGAAUUCUCGGGUGCCAA | 6.87 |
| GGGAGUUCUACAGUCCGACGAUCUGCAUUUCUUUAACCAUAGCUGUAAUGUACCAUAUUAAAUUGUAGCCUUUUGCAUGCGGGUAUUAUAUAAUAAUGAAUGGGUGGCUCCUAGUAGCAUGCAACCCAUGACUUGGAAUUCUCGGGUGCCAA | 23.5 |
| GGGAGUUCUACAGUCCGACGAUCUGCCUGCUGGAAGUCUGUUUUGGGGAGAAGCCUAGUAGAACUCCCAGCCCUCAGCUGUCAUCCUUCCUGCCCUGCCCCUCUGUUUUAUCCUGGUGGGUCUUGCCUGUGACUGGAAUUCUCGGGUGCCAA | 3.21 |
| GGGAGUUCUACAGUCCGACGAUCAAUCUGAAUACUAAACAUAUUAGACCCACCUGAAAAUAAUAUAGCCAAUUUCUAGGUAAUCUUACUGCUUUGUGGGUUUCUUUCCAUGUACAUCUACCUCUUCCAGCUGUUGGAAUUCUCGGGUGCCAA | 0.304 |
| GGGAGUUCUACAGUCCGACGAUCACUGGAUGGUGGUACAUGGUGGCAGGGACAGGACCACACCCAGUUAAGGCCAGACCAGGCUGAGUGUGACCCCUGAGGUAAACACUCCACUAAGCUGUGUCUUGUUCAUGUGGAAUUCUCGGGUGCCAA | 0.402 |
| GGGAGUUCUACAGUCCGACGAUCCCUUCAUUCUACAUAGACAUCAUUGGUUUUGGAGUUUAAAAAAAAAAGUCACCUUUUUGCUGAUGAAAAGAACAUAUGUAUAAUAUAGUUGAACUCGAAGACAACUUAAAUGGAAUUCUCGGGUGCCAA | 0.331 |
| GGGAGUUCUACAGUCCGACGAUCCAGGCAAAAGAUCCACUCCUUCCCACACUCAUUUGCCUGAACUUACUCGAAGGGCUGCAUUUCUCUGAGUUUACGAAAUUGUGUCAUUAUGGUCCCCAUACAGUGGUAUUUGGAAUUCUCGGGUGCCAA | 2.61 |
| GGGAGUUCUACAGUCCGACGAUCGGAGGGACGGAGCCGGACUGGACAUGGUCACUCAGUACCGCCUGCAGUGUCGCCAUGACUGAUCAUGGCUCUUGCAUUUUUGGGUAAAUGGAGACUUCCGGAUCCUGUCAUGGAAUUCUCGGGUGCCAA | 0.767 |
| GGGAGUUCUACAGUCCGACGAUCAUUUAAUUCCAAAGGUGAGAGUUGGAGUGAGAUGUCUUCCAUAUCUAUACCUUUGUGCACAGUUGAAUGGGAACUGUUUGGGUUUAGGGCAUCUUAGAGUUGAUUGAUGGUGGAAUUCUCGGGUGCCAA | 6.03 |
| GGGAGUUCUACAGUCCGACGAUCUAAAAAAGAAAAAGAAAAAUACAUCAGGGAACCACUCCAUGGGGUAAAUGAUGACUACUGUUUGGGGUUUUGAGACCCCGCUGUGUAAAUGUGUGUCUUUCACAGGAGUGUGGAAUUCUCGGGUGCCAA | 0.55 |
| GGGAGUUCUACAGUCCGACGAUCCUGAAGAGGGGCCGGCCUGAAGCCCAUGACCCCCCAGCACCACACUCCGGGAGCCCAGCCCCCAUCGGGGGCUUCCUGUACCUCCUUUUGCCUGGCUCUGCUCUUUAGACUGGAAUUCUCGGGUGCCAA | 0.593 |

Study 2
Target: Sal-like protein 4, full length isoform A (SALL4, Homo sapiens, UniProt Q9UJQ4, residues 1-1053)
Sequence of UniProt Q9UJQ4 (whole entry, looked up): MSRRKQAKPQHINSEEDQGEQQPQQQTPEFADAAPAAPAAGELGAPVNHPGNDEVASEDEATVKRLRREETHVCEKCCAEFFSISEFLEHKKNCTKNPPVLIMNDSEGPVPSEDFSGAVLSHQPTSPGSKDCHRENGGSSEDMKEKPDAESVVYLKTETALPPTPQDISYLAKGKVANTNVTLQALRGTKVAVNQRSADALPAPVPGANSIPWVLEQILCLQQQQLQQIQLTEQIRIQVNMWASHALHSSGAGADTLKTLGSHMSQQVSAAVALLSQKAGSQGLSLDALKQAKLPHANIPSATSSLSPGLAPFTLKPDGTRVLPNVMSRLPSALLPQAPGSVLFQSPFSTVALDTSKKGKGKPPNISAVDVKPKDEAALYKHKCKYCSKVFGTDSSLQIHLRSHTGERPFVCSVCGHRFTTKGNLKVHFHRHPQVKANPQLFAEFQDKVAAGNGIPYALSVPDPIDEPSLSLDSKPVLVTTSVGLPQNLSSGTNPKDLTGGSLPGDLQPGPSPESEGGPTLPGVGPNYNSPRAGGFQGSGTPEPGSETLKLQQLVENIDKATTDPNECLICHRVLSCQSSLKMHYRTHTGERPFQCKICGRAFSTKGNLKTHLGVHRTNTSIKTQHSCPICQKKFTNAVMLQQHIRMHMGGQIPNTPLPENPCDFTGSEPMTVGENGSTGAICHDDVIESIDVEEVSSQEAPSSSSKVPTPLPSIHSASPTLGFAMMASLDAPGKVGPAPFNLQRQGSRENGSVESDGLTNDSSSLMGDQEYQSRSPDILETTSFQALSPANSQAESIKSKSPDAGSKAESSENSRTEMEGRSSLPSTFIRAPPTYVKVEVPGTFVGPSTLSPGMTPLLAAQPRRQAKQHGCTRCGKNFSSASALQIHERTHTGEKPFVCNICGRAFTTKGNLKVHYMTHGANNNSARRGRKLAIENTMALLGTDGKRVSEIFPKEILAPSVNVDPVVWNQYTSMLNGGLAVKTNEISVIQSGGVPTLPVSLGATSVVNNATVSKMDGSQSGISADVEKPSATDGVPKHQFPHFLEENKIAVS
Technique: universal PBM
Molecule type: double-stranded DNA, one strand shown
Medium: in vitro
Concentration: 600 nM
Notes: 8-mer, flanks averaged, mean of replicates
Direction: higher = stronger binding
| Sequence | E-score |
| --- | --- |
| AAAATTCA | 0.343 |
| ATCGAAAC | 0.0446 |
| GCCTGGTA | -0.193 |
| AATACTAG | 0.17 |
| AGTCAATA | 0.221 |
| GTAGGCTA | -0.0407 |
| GGTACAAA | 0.155 |
| ATCAAGAG | 0.165 |
| TTAATCAA | 0.334 |
| AGCATATG | 0.0735 |
| CACAGTAA | 0.114 |
| AAGTAATT | 0.363 |
| GGTACCAC | -0.198 |
| AGGCATTG | -0.0122 |
| GTGCTGTA | -0.0963 |
| TAACCAGA | 0.098 |
| CCACGACC | -0.278 |

Study 3
Target: PABPC1L2, full length, GST fusion (mouse, UniProt A0ABA7IW68)
Technique: RNAcompete
Molecule type: RNA
Medium: in vitro
Concentration: 20 nM
Notes: 7-mer, probes averaged, single round
Reference: mean of 7-mers
Direction: higher = stronger binding
| Sequence | 7-mer Z-score |
| --- | --- |
| AUGCAGC | -0.0971 |
| CCAGGAC | -0.00833 |
| GGUCUUA | -0.271 |
| UAGGUUU | -0.347 |
| AUUUCCU | -0.318 |
| UUGUUGA | -0.393 |
| AACGGGG | 0.448 |
| CUCUCAA | -0.22 |
| UGAAAGA | 0.437 |
| AAACGAG | 1.1 |
| GGUUUGA | -0.309 |
| UUUGAUC | -0.211 |
| CGGUAGU | -0.148 |
| AAGACGU | 0.358 |
| GAUGUCG | -0.28 |
| AGCAGCA | -0.0174 |
| GAUCCUC | -0.356 |
| CCAUGGA | -0.0264 |
| GUUUUAG | -0.394 |
| CGCUGUU | -0.411 |
| CCCGGAA | -0.113 |
| UUAGAAA | 1.52 |
| GGAUCAG | 0.231 |
| AUAAAAC | 3.74 |
| GUAAGAC | -0.148 |

Study 4
Target: Histone acetyltransferase KAT6A, winged helix 1, GST fusion (KAT6A, Homo sapiens, UniProt Q92794, residues 1-85)
Technique: protein binding microarray
Molecule type: double-stranded DNA, one strand shown
Medium: in vitro
Concentration: not given
Notes: 8-mer, flanks averaged, mean of 2 arrays, mostly near background
Reference: not given
Direction: higher = stronger binding
Construct (chain): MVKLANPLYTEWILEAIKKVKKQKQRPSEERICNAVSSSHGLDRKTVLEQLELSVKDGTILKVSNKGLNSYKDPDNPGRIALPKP
| Sequence | E-score |
| --- | --- |
| AGTTAGGA | -0.151 |
| AGATTCGA | -0.242 |
| ATGCATCA | -0.139 |
| AATCTATG | -0.195 |
| ACTCCAAG | -0.168 |
| TACCTTGA | -0.0607 |
| GAGAGCGA | 0.0227 |
| CCTTCAAG | -0.0677 |
| GGCTCCAC | -0.00059 |
| AGATTAGG | -0.0494 |
| CACCGATG | -0.0895 |
| GGCTAAAA | 0.0905 |
| GAGGTTGC | 0.089 |
| AGGCTGGG | -0.348 |
| AAAGCGTG | 0.168 |
| ATCGAGCC | 0.0428 |
| CGCCGAAG | 0.331 |
| ATCACTGG | -0.157 |
| AAGTTACC | 0.0526 |
| GAAATCGC | -0.0345 |
| AGCTATAG | -0.0528 |

Study 5
Target: Prothrombin, mature alpha-thrombin (F2, Homo sapiens, UniProt P00734)
Technique: aptamer microarray, sandwich
Molecule type: DNA with 2'F-ANA
Medium: in vitro
Concentration: 200 nM
Notes: whole 15-mer aptamer, many near background
With: Cy3 exosite-II aptamer, 400 nM
Direction: higher = stronger binding
Sequence: GGTTGGTGTGGTTGG
| Modification | mean fluorescence intensity |
| --- | --- |
| 2'F-ANA at 1 2 5 6 8 10 13 | 46.3 a.u. |
| 2'F-ANA at 4 5 6 7 8 10 12 13 15 | 83.2 a.u. |
| 2'F-ANA at 1 2 5 6 7 9 10 11 15 | 46.8 a.u. |
| 2'F-ANA at 1 2 3 4 5 9 11 13 15 | 57.6 a.u. |
| 2'F-ANA at 4 6 8 9 11 13 14 15 | 78.7 a.u. |
| 2'F-ANA at 1 7 8 9 10 11 12 13 14 | 62.8 a.u. |
| 2'F-ANA at 4 6 10 12 13 | 82.1 a.u. |
| 2'F-ANA at 1 3 5 7 8 10 12 15 | 51.6 a.u. |
| 2'F-ANA at 1 2 3 4 6 10 12 14 | 48.9 a.u. |
| 2'F-ANA at 2 4 7 8 14 | 171 a.u. |
| 2'F-ANA at 3 4 8 10 12 13 14 15 | 154 a.u. |
| 2'F-ANA at 1 2 3 8 13 14 | 71 a.u. |
| 2'F-ANA at 2 6 7 12 14 | 171 a.u. |
| 2'F-ANA at 1 2 3 4 6 8 12 14 | 75.7 a.u. |
| 2'F-ANA at 4 6 7 8 9 13 | 185 a.u. |
| 2'F-ANA at 5 6 8 11 12 | 136 a.u. |
| 2'F-ANA at 2 5 8 9 12 14 15 | 46.1 a.u. |
| 2'F-ANA at 2 6 7 9 13 15 | 235 a.u. |
| 2'F-ANA at 2 7 8 9 10 11 14 | 111 a.u. |
| 2'F-ANA at 1 2 3 7 8 9 10 12 13 14 15 | 61.1 a.u. |
| 2'F-ANA at 1 3 4 8 10 11 12 14 15 | 48.5 a.u. |

Study 6
Target: Max dimerization protein 1, bHLH-zipper, MAX partner unstated (MXD1, Homo sapiens, UniProt Q05195, residues 56-136)
Technique: protein-binding microarray
Molecule type: double-stranded DNA, one strand shown
Medium: in vitro
Concentration: not given
Notes: k-mer, scored over probes, only values ≥0.25
Direction: higher = stronger binding
Construct (chain): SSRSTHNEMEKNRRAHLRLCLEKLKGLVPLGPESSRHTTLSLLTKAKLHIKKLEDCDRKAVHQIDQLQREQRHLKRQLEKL
| Sequence | E-score |
| --- | --- |
| CATGCCGA | 0.387 |
| CCACGCAA | 0.252 |
| ATGGGTGC | 0.282 |
| CGTGTGAC | 0.276 |
| ATGAGGGA | 0.275 |
| ACGCGGCG | 0.262 |
| AATGTGGT | 0.281 |
| ATGAGGTG | 0.253 |
| GGCGTGGA | 0.333 |
| CATTGCAC | 0.268 |
| CAGCCATG | 0.261 |
| CGAGCACA | 0.288 |
| ACGGGGGA | 0.299 |
| GCACGCAC | 0.272 |
| AAACGTGT | 0.36 |
| GACCACGA | 0.329 |
| CATGCCAA | 0.322 |
| ATGTGGAA | 0.273 |
| CGTCCACG | 0.294 |
| ATGCCGCA | 0.252 |
| GCACGCCA | 0.259 |
| CTCCCCAA | 0.326 |
| CATGTCTA | 0.307 |
| GACCCCGC | 0.258 |
| CCACATGA | 0.417 |

Some of these lines once more (study 6):
| Sequence | E-score |
| --- | --- |
| ATGGGTGC | 0.282 |
| CGTGTGAC | 0.276 |
| ATGAGGGA | 0.275 |
| ACGCGGCG | 0.262 |
| AATGTGGT | 0.281 |
| ATGAGGTG | 0.253 |
| GGCGTGGA | 0.333 |
| CATTGCAC | 0.268 |
| CAGCCATG | 0.261 |
| CGAGCACA | 0.288 |
| ACGGGGGA | 0.299 |
| GCACGCAC | 0.272 |
| AAACGTGT | 0.36 |
| GACCACGA | 0.329 |
| CATGCCAA | 0.322 |
| ATGTGGAA | 0.273 |
| CGTCCACG | 0.294 |
